Published values of several laboratories.
Several values in a cell are separate wells, animals, samples, runs or records. ± gives the spread as reported.
RAD51: DNA repair protein RAD51 homolog 1 (RAD51, Homo sapiens, UniProt Q06609)
DNA dC->dU-editing enzyme APOBEC-3B C-terminal domain: DNA dC->dU-editing enzyme APOBEC-3B, C-terminal domain (Homo sapiens, UniProt Q9UH17)
MAOB: Amine oxidase [flavin-containing] B (MAOB, Homo sapiens, UniProt P27338)
IL1RL2: Interleukin-1 receptor-like 2 (IL1RL2, Homo sapiens, UniProt Q9HB29)
TDP1: Tyrosyl-DNA phosphodiesterase 1 (TDP1, Homo sapiens, UniProt Q9NUW8)

The remaining activity of `Cn1nc(-c2ccc(Cl)cc2)c2cc(C(=O)NCCCN3CCCCCC3)sc21` is reported as 48.6 ± 2% (RAD51; D-loop formation, inhibitor; 10 x RAD52 pairing IC50, 4% DMSO, added: 1 mM calcium chloride; baseline: DMSO control).
With `C=C1C[C@@]2(C(=O)OC)C=C(C(=O)Nc3cccc(C(=O)Nc4ccc(Nc5nccc(-c6cccnc6)n5)c(C)c4)c3)C(=O)[C@@H]1C2` the remaining activity was 0.907 (MAPK8 (Homo sapiens, UniProt P45983); kinase activity, inhibitor; 0.006774 µM, unit not given, added: 10 mM glutathione; baseline: no inhibitor).
For `NC(=O)COc1cccc(-c2cccc(C(=O)N3CCC4(CCCC4)C3)c2)c1`, the remaining activity was 24.2% (DNA dC->dU-editing enzyme APOBEC-3B C-terminal domain; deaminase activity, inhibitor; 500 µM).
With `Nc1ncc(-c2cc(-c3cnn(CC(F)(F)F)c3)ncc2F)nc1C(=O)NC1CNCC(F)C1` (centres unmarked) the remaining binding was 100% (MYO3A; KINOMEscan; 1 µM; baseline: DMSO control).
With `COc1ccc(NC(=O)Nc2ccc3c(c2)C(=O)N(C(C)CO)CC(C)C(CN(C)Cc2ccc4c(c2)OCO4)O3)cc1` (centres unmarked) the remaining activity was 96% (Blk (Mus musculus, UniProt P16277); kinase activity, KinaseProfiler; 0.03 µM, species mouse; baseline: control).
`COc1ccccc1-c1ccncc1C(=O)Nc1nnc(OCc2ccc(Cl)cc2)s1` has a remaining activity of 40% (DNA polymerase theta, helicase domain (POLQ, Homo sapiens, UniProt O75417); ATPase activity, ADP-Glo; 0.12 µM, added: ATP 600 µM).
`CC(C)c1ccc(/C=C/C(=O)c2ccc(F)cc2)cc1` has a remaining activity of -4.1% (MAOB; enzyme activity, inhibitor; 1 µM).
The remaining activity of `NC(=O)c1ccc2nc(CN3CCCC3c3ccco3)cc(O)c2c1` (centres unmarked) is reported as 7.4% (DNA dC->dU-editing enzyme APOBEC-3B C-terminal domain; deaminase activity, inhibitor; 500 µM).
For `CC(C)[C@@H]1NC(=O)[C@H](Cc2ccccc2)NC(=O)CSC[C@@H](C(N)=O)NC(=O)[C@H](CCC(=O)O)NC(=O)[C@H](CO)NC(=O)[C@H](Cc2c[nH]c3cccc(Cl)c23)NC(=O)[C@H](C2CCCCC2)NC(=O)[C@H](C(C)C)NC(=O)[C@H](Cc2ccc(O)cc2)NC(=O)[C@H](CC(=O)O)NC(=O)[C@H](Cc2c[nH]c3ccccc23)NC(=O)[C@H](Cc2ccc(N)nc2)NC(=O)[C@H](Cc2c[nH]c3ccc(Cl)cc23)NC(=O)[C@H](CCC(=O)O)NC1=O`, the remaining activity was 91.1% (IL1RL2; reporter gene (SEAP), inhibitor, HEK-Blue IL-36R reporter; HEK-Blue IL-36R cells; 0.005 µM, 6 h, added: IL-36β 0.3 ng/mL).
For `O=C(c1cccc(-c2cc(NCCO)ncn2)c1)N1CCCC1c1ccccc1` (centres unmarked), the remaining activity was 19.8% (DNA dC->dU-editing enzyme APOBEC-3B C-terminal domain; deaminase activity, inhibitor; 500 µM).
Under “log2 fold change”, `COC1CN([C@H]2CC[C@H]([C@@]3(C)Oc4c(Cl)cc(C(=O)NCc5c(SC)cc(C)[nH]c5=O)c(C)c4O3)CC2)C1` is recorded as 0.377 (RNA-seq, item: GABARAPL1 mouse homolog; mouse, HT-1376 xenograft, whole blood; dose not given; baseline: vehicle).
The remaining activity of `CN(C)S(=O)(=O)c1ccc(S(=O)(=O)N2CCC(n3c(=O)[nH]c4ccccc43)CC2)cc1` is reported as 13.1% and 25.8% and 4.25% and 31% (mfd, C-terminal domain (Escherichia coli, UniProt P30958); ATPase activity, BIOMOL Green; concentration not given).
`COC(=O)[C@@]1(C)C=C(C(=O)Nc2cccc(C(=O)Nc3ccc(Nc4nccc(-c5cccnc5)n4)c(C)c3)c2)C(=O)CC1` gave a remaining activity of 0.337 and 0.371 and 0.46 (MAPK14 (Homo sapiens, UniProt Q16539); enzyme activity, inhibitor; 44.44 µM, unit not given; baseline: vehicle).
With `C[C@](C(=O)NC1CCOCC1)(c1cncnc1)N(C(=O)[C@H](F)Cl)c1ccc(OC(F)(F)Cl)cc1` the remaining activity was 102% (Caspase-6 (CASP6, Homo sapiens, UniProt P55212); enzyme activity, inhibitor; 10 µM).
`O=c1cnnc(Nc2ccc(O)cc2)[nH]1` gave a remaining activity of 22.8% (DNA dC->dU-editing enzyme APOBEC-3B C-terminal domain; deaminase activity, inhibitor; 500 µM).
The remaining activity of `Cc1ccc(-c2nc(C(=O)NCCCN3CCOCC3)cc3c2[nH]c2ccccc23)cc1` is reported as 73.6 ± 2.2% (RAD51; D-loop formation, inhibitor; 10 x RAD52 pairing IC50, 4% DMSO, added: 1 mM calcium chloride; baseline: DMSO control).
The remaining activity of `CCC1(O)CCCN(C(=O)c2ccc(-c3ccc(F)c(C(N)=O)c3)cc2)C1` (centres unmarked) is reported as 1.1% (DNA dC->dU-editing enzyme APOBEC-3B C-terminal domain; deaminase activity, inhibitor; 500 µM).
With `CC(C)c1ccc(/C=C/C(=O)c2ccc(Br)cc2)cc1` the remaining activity was 1.82% (MAOB; enzyme activity, inhibitor; 1 µM).
`Cc1cc(N2CCN(C)CC2)nc2ccc(NC(=S)NCCCN3CCN(C)CC3)cc12` has a remaining activity of 112 ± 4.2% (RAD51; D-loop formation, inhibitor; 10 x RAD52 pairing IC50, 4% DMSO, added: 1 mM calcium chloride; baseline: DMSO control).
`Cc1cccc(-c2ccc3nc(NC(=O)C4CCCCC4)nn3c2)c1` gave a remaining activity of 105% (EEF2K (Homo sapiens, UniProt O00418); enzyme activity, Dundee kinase panel; 10 µM).
The remaining activity of `Cc1ccc(C(=O)c2oc3ccc(Cl)cc3c2NC(=O)CN2CCN(C)CC2)cc1` is reported as 92.5 ± 5% (RAD51; D-loop formation, inhibitor; 10 x RAD52 pairing IC50, 4% DMSO, added: 1 mM calcium chloride; baseline: DMSO control).
`CC(C)c1ccc(/C=C/C(=O)c2cccc(C(F)(F)F)c2)cc1` gave a remaining activity of 65.1% (MAOB; enzyme activity, inhibitor; 1 µM).
The remaining activity of `Cc1c(C(=O)Nc2ccc(S(=O)(=O)N(C)C3CCN(C)CC3)cc2)oc2c(Cl)cccc12` is reported as 97.5 ± 2.5% (RAD51; D-loop formation, inhibitor; 10 x RAD52 pairing IC50, 4% DMSO, added: 1 mM calcium chloride; baseline: DMSO control).
`CC(C)[C@@H]1NC(=O)[C@H](Cc2ccccc2)NC(=O)CSC[C@@H](C(N)=O)NC(=O)[C@H](CCC(=O)O)NC(=O)[C@H](CO)NC(=O)[C@H](Cc2c[nH]c3ccccc23)NC(=O)[C@H](C(C)C)NC(=O)[C@H](C(C)C)NC(=O)[C@H](Cc2ccc(O)cc2)NC(=O)[C@H](CC(=O)O)NC(=O)[C@H](Cc2c[nH]c3ccccc23)NC(=O)[C@H](Cc2ccc(O)cc2)NC(=O)[C@H](Cc2c[nH]c3ccccc23)NC(=O)[C@H](CCC(=O)O)NC1=O` has a remaining activity of 96.8% (IL1R1 (Homo sapiens, UniProt P14778); IL-8 release, antagonist; A-431; 20 µM, 18 h, added: IL-1β 5 ng/mL; baseline: untreated).
The inhibition of `C=CCn1cc(C=NOCc2ccc3nc(-c4ccccc4)c(Nc4ccc(C(=O)O)cc4)n3c2)c2ccccc21` is reported as 22.2% (TDP1; enzyme activity, inhibitor; 100 µM, unpurified compound).
`C=C(NC(=O)c1csc(-c2nc3c(cc2O)-c2nc(cs2)C(=O)NC(C(C)O)C(=O)NC(=C(C)OC)c2nc(cs2)C(=O)NC2c4nc(cs4)C(=O)NC(COC(=O)c4c5c6c(cccc6n4O)COC(=O)C(OC4CC(C)(O)C(N(C)C)C(C)O4)C2OC5)c2nc-3cs2)n1)C(N)=O` (centres unmarked) has an AUC(0-last) of 5160 ng·h/mL (Sprague-Dawley rat, male, plasma; intravenous infusion, 18 mg/kg single dose).
`Cc1ncsc1-c1ccc(C(C)NC(=O)C2CC(O)CN2C(=O)C(NC(=O)CCCCCCCCCCN2CCCC(Nc3ncc(Cl)c(Nc4ccccc4S(=O)(=O)C(C)C)n3)C2)C(C)(C)C)cc1` (centres unmarked) — result for “log2 fold change”: -1.41 (22Rv1; RNA-seq, item: SLC24A1 mRNA; concentration not given; baseline: DMSO).
Under “log2 fold change”, `CN1CCCNC(=O)c2cccc(c2)C(=O)NCCCN(C)CCCNc2cccc3c2C(=O)c2cccc(c2C3=O)NCCC1` is recorded as -0.803 (SAS; RNA-Seq, item: STK3 mRNA; 1 µM, 6 h; baseline: untreated cells).
With `CNS(=O)(=O)Nc1nccc(Cc2c(C)c3ccc(Oc4ncccc4F)cc3oc2=O)c1F` the IC50 was 0.0119 µM (HCC202; cell viability; 7 days).
The IC50 of `Cc1nn(-c2cccc(N)c2)c(=O)c2cnc(Nc3ccc(N4CCNCC4)cc3)nc12` is reported as 1.43 µM (NEK2 (Homo sapiens, UniProt P51955); enzyme activity, inhibitor).
For `N#Cc1cnc2sc(C(=O)O)cc2c1N1CCc2[nH]nc(C(=O)N[C@@H](CC(=O)NCCOCCN3CCOCC3)c3cccc(Br)c3)c2C1`, the remaining activity was 94.7% (IL1RL2; reporter gene (SEAP), inhibitor, HEK-Blue IL-36R reporter; HEK-Blue IL-36R cells; 0.14 µM, 6 h, added: IL36A 0.01 ng/mL).
`Cc1nc(N2CCCCC2)nc(O)c1C=NOCc1ccc(-c2nc3cc(-c4ccccc4)ccn3c2Nc2ccc(C(=O)O)cc2)cc1` (mixture of isomers) gave an inhibition of 84.3% (TDP1; enzyme activity, inhibitor; 100 µM, unpurified compound).
`C=CC(=O)Nc1cccc(Cn2ncc3cnc(Nc4cnn(CCOC)c4)nc32)c1` — result for “percent of control”: 100% (CAMK1D human; binding, KINOMEscan; 100 nM; lower = stronger binding).
With `COc1cc(C(=O)/C=C/c2ccc(C(C)C)cc2)cc(OC)c1OC` the remaining activity was 53.4% (MAOB; enzyme activity, inhibitor; 1 µM).
The remaining activity of `CCC1Sc2ccc(S(=O)(=O)CCC(=O)Nc3cccc4ccccc34)cc2NC1=O` (centres unmarked) is reported as 75.4% (P2X purinoceptor 7 (P2rx7, Mus musculus, UniProt Q9Z1M0, A312V); ATP-evoked current, inhibitor, whole-cell patch clamp; HEK293 transfected; 0.3 µM).

Some of these lines once more:
For `CC(C)[C@@H]1NC(=O)[C@H](Cc2ccccc2)NC(=O)CSC[C@@H](C(N)=O)NC(=O)[C@H](CCC(=O)O)NC(=O)[C@H](CO)NC(=O)[C@H](Cc2c[nH]c3cccc(Cl)c23)NC(=O)[C@H](C2CCCCC2)NC(=O)[C@H](C(C)C)NC(=O)[C@H](Cc2ccc(O)cc2)NC(=O)[C@H](CC(=O)O)NC(=O)[C@H](Cc2c[nH]c3ccccc23)NC(=O)[C@H](Cc2ccc(N)nc2)NC(=O)[C@H](Cc2c[nH]c3ccc(Cl)cc23)NC(=O)[C@H](CCC(=O)O)NC1=O`, the remaining activity was 91.1% (IL1RL2; reporter gene (SEAP), inhibitor, HEK-Blue IL-36R reporter; HEK-Blue IL-36R cells; 0.005 µM, 6 h, added: IL-36β 0.3 ng/mL).
The remaining activity of `Cc1c(C(=O)Nc2ccc(S(=O)(=O)N(C)C3CCN(C)CC3)cc2)oc2c(Cl)cccc12` is reported as 97.5 ± 2.5% (RAD51; D-loop formation, inhibitor; 10 x RAD52 pairing IC50, 4% DMSO, added: 1 mM calcium chloride; baseline: DMSO control).
The remaining activity of `CCC1(O)CCCN(C(=O)c2ccc(-c3ccc(F)c(C(N)=O)c3)cc2)C1` (centres unmarked) is reported as 1.1% (DNA dC->dU-editing enzyme APOBEC-3B C-terminal domain; deaminase activity, inhibitor; 500 µM).
With `COc1ccc(NC(=O)Nc2ccc3c(c2)C(=O)N(C(C)CO)CC(C)C(CN(C)Cc2ccc4c(c2)OCO4)O3)cc1` (centres unmarked) the remaining activity was 96% (Blk (Mus musculus, UniProt P16277); kinase activity, KinaseProfiler; 0.03 µM, species mouse; baseline: control).
